# Measured values of several laboratories.
# Each line is one published result; not all experiments were run side by side. Numbers after ± are the reported error.
# rep main protease: Replicase polyprotein 1ab, main protease (rep, Middle East respiratory syndrome-related coronavirus, UniProt K9N7C7)
# OPRM1: Mu-type opioid receptor (OPRM1, Homo sapiens, UniProt P35372)
# Sequence of UniProt P35372 (whole entry, looked up): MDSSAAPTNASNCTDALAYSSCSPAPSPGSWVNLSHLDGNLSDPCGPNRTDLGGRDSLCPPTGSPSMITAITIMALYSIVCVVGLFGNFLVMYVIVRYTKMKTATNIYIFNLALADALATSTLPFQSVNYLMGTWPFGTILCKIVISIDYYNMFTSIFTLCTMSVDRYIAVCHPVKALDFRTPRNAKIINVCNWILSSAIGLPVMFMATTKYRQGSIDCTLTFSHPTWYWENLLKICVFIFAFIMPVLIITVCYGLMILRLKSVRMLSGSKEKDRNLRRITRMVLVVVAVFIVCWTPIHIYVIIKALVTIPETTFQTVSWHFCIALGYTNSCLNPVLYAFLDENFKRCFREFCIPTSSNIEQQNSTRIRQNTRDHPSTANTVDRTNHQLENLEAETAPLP
# rep macrodomain 1: Replicase polyprotein 1ab, macrodomain 1 (rep, Middle East respiratory syndrome-related coronavirus, UniProt K9N7C7)
# rep papain-like protease: Replicase polyprotein 1ab, papain-like protease (rep, Middle East respiratory syndrome-related coronavirus, UniProt K9N7C7)
SMILES,target or system,assay,test system,setting,measurement,result
CSCC[C@@H](C=O)NC(=O)[C@H](CC(C)C)NC(=O)[C@H](CC(C)C)NC(C)=O,rep main protease,"enzyme activity, inhibitor",,,IC50,1.24 µM
C=CC(=O)NC(CC(=C)C)C(=O)N1CC(C(=O)NC(Cc2ccco2)C(=O)NC)C(c2cccc(C(F)(F)F)c2)C1 (stereo not drawn),rep main protease,"enzyme activity, inhibitor",,,IC50,> 100 µM
CC(C)C[C@H](NC(=O)[C@H](CO[C@@H]1O[C@H](CO)[C@@H](O)[C@H](O)[C@H]1O)NC(=O)[C@H](CCCCN)NC(=O)[C@H](CC(C)C)NC(=O)[C@H](C)NC(=O)[C@H](CCCCN)NC(=O)[C@H](CCC(=O)O)NC(=O)[C@H](C)NC(=O)[C@H](CC(C)C)NC(=O)[C@H](CC(N)=O)NC(=O)[C@@H]1CCCN1C(=O)[C@H](CC(C)C)NC(=O)[C@H](Cc1ccccc1)NC(=O)CNC(=O)[C@H](NC(=O)[C@@H](N)Cc1ccc(O)cc1)[C@H](C)O)C(N)=O,OPRM1,radioligand displacement,CHO membranes,"60 min, pH 7.5, 25 °C, together with: 0.25 nM [3H]DAMGO",Ki,0.0062 ± 0.00047 µM
C=CC(=O)N1CCN(c2cc(-c3ccc(C4CCC4)cc3)ncc2C(=O)N[C@H](Cc2ccccc2)C(=O)NC)C(C)C1 (stereo partly drawn),rep main protease,"enzyme activity, inhibitor",,,IC50,> 100 µM
COc1cc(C(=O)N(CCC(=O)N2CCNCC2)Cc2cccc(Cl)c2)cc(OC)c1OC,rep macrodomain 1,inhibitor,,MERS-CoV,IC50,> 300 µM
CCC(C(=O)Nc1ccccc1C)n1cccc2nc(SCc3ccc(F)cc3)nc1-2 (stereo not drawn),rep papain-like protease,"enzyme activity, inhibitor",,,IC50,> 100 µM
CCCCCCCCCCCCCCCC(=O)N[C@@H](CCC(=O)NCCOCCOCCC(=O)NCCOCCOCCC(=O)NCCCC[C@H](NC(=O)[C@H](CC(=O)O)NC(=O)[C@H](CC(C)C)NC(=O)[C@H](Cc1ccc(O)cc1)NC(=O)[C@H](CCCCN)NC(=O)[C@H](CO)NC(=O)[C@H](Cc1ccc(O)cc1)NC(=O)[C@H](CC(=O)O)NC(=O)[C@H](CO)NC(=O)[C@@H](NC(=O)[C@H](Cc1ccccc1)NC(=O)[C@@H](NC(=O)CNC(=O)[C@H](CCC(N)=O)NC(=O)[C@@H](CO)NC(=O)[C@@H](N)Cc1c[nH]cn1)[C@@H](C)O)[C@@H](C)O)C(=O)N[C@@H](CCCNC(=N)N)C(=O)N[C@@H](CCCNC(=N)N)C(=O)N[C@@H](C)C(=O)N[C@@H](CCC(N)=O)C(=O)N[C@@H](CC(=O)O)C(=O)N[C@@H](Cc1ccccc1)C(=O)N[C@H](C(=O)N[C@@H](CCC(N)=O)C(=O)N[C@@H](Cc1c[nH]c2ccccc12)C(=O)N[C@@H](CC(C)C)C(=O)N[C@@H](CC(C)C)C(=O)N[C@@H](CC(N)=O)C(=O)N[C@H](C(=O)NCC(=O)NCC(=O)N1CCC[C@H]1C(=O)N[C@@H](CO)C(=O)N[C@@H](CO)C(=O)NCC(=O)N[C@@H](C)C(=O)N1CCC[C@H]1C(=O)N1CCC[C@H]1C(=O)N1CCC[C@H]1C(=O)N[C@@H](CO)C(N)=O)[C@@H](C)O)C(C)C)C(=O)O,,,"rhesus monkey, both sexes","subcutaneous, 20 µg/kg, multiple doses, day 7",Tmax,2 h
C=CC(=O)NC(CC(=C)C)C(=O)N1CC(C(=O)NC(C(=O)NC)C(C)CC)C(c2cccc(C(F)(F)F)c2)C1 (stereo not drawn),rep main protease,"enzyme activity, inhibitor",,,IC50,> 100 µM
O=C[C@H](C[C@@H]1CCNC1=O)NC(=O)[C@H](Cc1ccccc1)NC(=O)/C=C/c1ccc2c(c1)OCO2,rep main protease,"enzyme activity, inhibitor",,,IC50,> 25 µM
CC(C)C[C@H](NC(=O)[C@H](CO[C@@H]1O[C@H](CO)[C@@H](O[C@@H]2O[C@H](CO)[C@H](O)[C@H](O)[C@H]2O)[C@H](O)[C@H]1O)NC(=O)[C@H](CCCCN)NC(=O)[C@H](CC(C)C)NC(=O)[C@H](C)NC(=O)[C@H](CCCCN)NC(=O)[C@H](CCC(=O)O)NC(=O)[C@H](C)NC(=O)[C@H](CC(C)C)NC(=O)[C@H](CC(N)=O)NC(=O)[C@@H]1CCCN1C(=O)[C@H](CC(C)C)NC(=O)[C@H](Cc1ccccc1)NC(=O)CNC(=O)[C@H](NC(=O)[C@@H](N)Cc1ccc(O)cc1)[C@H](C)O)C(N)=O,OPRM1,radioligand displacement,CHO membranes,"60 min, pH 7.5, 25 °C, together with: 0.25 nM [3H]DAMGO",Ki,0.011 ± 0.0014 µM
CCC(C(=O)Nc1ccc(F)cc1)n1c(SCc2ccc(F)cc2)nc2ncccc21 (stereo not drawn),rep papain-like protease,"enzyme activity, inhibitor",,,IC50,> 100 µM
O=C[C@H](C[C@@H]1CCNC1=O)NC(=O)[C@H](Cc1ccccc1)NC(=O)/C=C/c1ccc(Cl)cc1F,rep main protease,"enzyme activity, inhibitor",,,IC50,1.7 µM
O=C(c1cccc(Br)c1)N1CCC(c2ccn3ncc(C(=O)N4CCCCC4)c3c2)CC1,rep macrodomain 1,inhibitor,,MERS-CoV,IC50,181 ± 14.4 µM
CCC(C(=O)Nc1ccc(C)cc1)n1cccc2nc(SCc3ccc(F)cc3)nc1-2 (stereo not drawn),rep papain-like protease,"enzyme activity, inhibitor",,,IC50,> 100 µM
O=C(/C=C/c1ccc2c(c1)OCO2)N[C@@H](Cc1ccccc1)C(=O)N[C@H](CO)C[C@@H]1CCNC1=O,rep main protease,"enzyme activity, inhibitor",,,IC50,> 25 µM

# For quick reference, copied from above:
SMILES,target or system,assay,test system,setting,measurement,result
O=C(c1cccc(Br)c1)N1CCC(c2ccn3ncc(C(=O)N4CCCCC4)c3c2)CC1,rep macrodomain 1,inhibitor,,MERS-CoV,IC50,181 ± 14.4 µM
O=C[C@H](C[C@@H]1CCNC1=O)NC(=O)[C@H](Cc1ccccc1)NC(=O)/C=C/c1ccc(Cl)cc1F,rep main protease,"enzyme activity, inhibitor",,,IC50,1.7 µM
